Experimental data collected from several papers.
Protocols differ between the studies behind these lines. Numbers after ± are the reported error.

CC(C)C[C@H](NC(=O)[C@H](CCCCN)NC(=O)[C@H](CCC(=O)O)NC(=O)[C@H](C)NC(=O)[C@@H](NC(=O)[C@H](CCCCN)NC(=O)[C@H](CC(=O)O)NC(=O)[C@H](Cc1ccc(O)cc1)NC(=O)[C@H](Cc1ccccc1)NC(=O)[C@H](C)NC(=O)[C@H](CCCCN)NC(=O)[C@H](CC(C)C)NC(=O)[C@H](Cc1c[nH]c2ccccc12)NC(=O)[C@@H](N)CC(=O)O)C(C)C)C(=O)N[C@@H](CCCCN)C(=O)N[C@@H](CCC(=O)O)C(=O)N[C@@H](C)C(=O)N[C@@H](Cc1ccccc1)C(=O)N1CCC[C@H]1C(=O)N[C@@H](CC(=O)O)C(=O)N[C@@H](Cc1c[nH]c2ccccc12)C(=O)N[C@@H](C)C(=O)N[C@@H](CCCCN)C(=O)N[C@@H](C)C(=O)N[C@@H](C)C(=O)N[C@@H](Cc1ccc(O)cc1)C(=O)N[C@@H](CC(=O)O)C(=O)N[C@@H](CCCCN)C(=O)N[C@@H](C)C(=O)N[C@@H](C)C(=O)N[C@@H](CCC(=O)O)C(=O)N[C@@H](CCCCN)C(=O)N[C@@H](C)C(=O)N[C@@H](CCCCN)C(=O)N[C@@H](CCC(=O)O)C(=O)N[C@@H](C)C(=O)N[C@@H](C)C(=O)O
Tmax (cynomolgus monkey female, plasma; intravenous infusion, 8 mg/kg, day 1, 30 min infusion): 0 h

COC(=O)C[C@](O)(CCCC(C)(C)OC(C)=O)C(=O)O[C@@H]1C(OC)=C[C@]23CCCN2CCc2cc4c(cc2[C@H]13)OCO4
tissue concentration (CD1 mouse, pancreas; oral, 1 mg/kg, 8 h): 10.1 ng/mL

CCCCCCCC(=O)SCC/C=C/[C@@H]1CC(=O)NCc2nc(cs2)C2=N[C@@](C)(CS2)C(=O)N[C@@H](C(C)C)C(=O)N1
beta rate constant (mouse NIH Swiss, female; intravenous, 5 mg/kg): 0.005 min⁻¹

CC(C)C[C@@H](NC(=O)[C@@H](CCCNC(=N)N)NC(=O)[C@@H](Cc1c[nH]cn1)NC(=O)[C@@H](Cc1c[nH]c2ccccc12)NC(=O)[C@@H](Cc1c[nH]cn1)NC(=O)[C@@H](Cc1ccccc1)NC(=O)[C@H](NC(=O)[C@@H](Cc1ccc(O)cc1)NC(=O)CNC(=O)CNC(=O)CCOCCOCCOCCNC(=O)CN1CCN(CC(=O)O)CCN(CC(=O)O)CC1)[C@H](C)O)C(=O)N[C@H](CC(N)=O)C(=O)N1CCC[C@@H]1C(=O)O [gallium-68 labelled]
blood half-life (male C57BL/6 mice, blood; iv, 18.5 MBq): 0.45 h

COc1cc(NC(=O)C(=O)c2c(C)n(Cc3ccc(Cl)cc3)c3ccc(C)cc23)ccn1
oral bioavailability (cynomolgus monkey, male and female, plasma; oral, 10 mg/kg, mean): 17.5%

CCNc1cc2[o+]c3cc(NCC)c(C)cc3c(-c3ccccc3C(=O)OCCOCC[18F])c2cc1C
heart to liver ratio (PET; rat; 55 min p.i.): ~4.5

O=C([O][Ti+2][O]C(=O)c1ccc([P+]([Au-][Cl])(c2ccccc2)c2ccccc2)cc1)c1ccc([P+]([Au-][Cl])(c2ccccc2)c2ccccc2)cc1.c1cc[cH-]c1.c1cc[cH-]c1
lethal dose (C57BL/6 mice, female; subcutaneous, once daily): 15 mg/kg/day

CC[C@H](C)[C@@H]1NC(=O)[C@H](CCCCN)NC(=O)[C@H](CCCCN)NC(=O)[C@H](Cc2c[nH]c3ccccc23)NC(=O)[C@H](CC(C)C)NC(=O)[C@@H]2CCCN2C(=O)[C@H](C)NC(=O)CNC(=O)CNC(=O)[C@H](CO)NC(=O)CNC(=O)CNC(=O)[C@H](CO)NC(=O)[C@H](CCC(=O)O)NC(=O)[C@H](CC(C)C)NC(=O)[C@H](CC(C)C)NC(=O)[C@H](CCCCN)NC(=O)[C@H](CCCCN)NC(=O)[C@H]([C@@H](C)CC)NC(=O)[C@H]([C@@H](C)CC)NC(=O)[C@H](CCCCN)NC(=O)[C@H](CCCCN)NC(=O)[C@H](Cc2c[nH]c3ccccc23)NC(=O)[C@H](CC(C)C)NC(=O)[C@@H]2CCCN2C(=O)CNC(=O)CNC(=O)[C@@H](NC(=O)CN)CSSC[C@@H](C(N)=O)NC(=O)[C@H](CC(C)C)NC(=O)[C@H](CCCCN)NC(=O)[C@H](CCCCN)NC(=O)[C@H]([C@@H](C)CC)NC1=O
remaining intact peptide (25% human serum; 50 µM, 24 h; reference: 0 h control): 53.6 ± 4.9%

CNC(=O)Oc1cc(C)c(S(C)(=O)=O)c(C)c1
percent metabolized (human liver microsomes; 1 µM, 30 min, 0.5 mg/mL protein): 54.6%

CC[C@H](C)[C@H](NC(=O)CNC(=O)[C@H](CC(=O)O)NC(=O)[C@H](CC(C)C)NC(=O)[C@@H](NC(=O)[C@H](CC(N)=O)NC(=O)[C@H](CCC(N)=O)NC(=O)CNC(=O)[C@H](CC(C)C)NC(=O)[C@H](CCCCN)NC(=O)[C@H](CCC(=O)O)NC(=O)[C@@H](NC(=O)[C@H](CCCCN)NC(=O)[C@H](CCC(=O)O)NC(=O)[C@H](Cc1ccccc1)NC(=O)[C@H](CC(C)C)NC(=O)[C@H](CCCCN)NC(=O)[C@H](Cc1c[nH]c2ccccc12)NC(=O)[C@@H](N)CCC(=O)O)[C@@H](C)CC)[C@@H](C)CC)C(=O)N[C@H](C(=O)N[C@@H](CCCCN)C(=O)N[C@@H](CC(C)C)C(=O)NCC(=O)N1CCC[C@H]1C(=O)N[C@@H](CC(C)C)C(=O)N[C@@H](CC(C)C)C(=O)N[C@@H](C)C(=O)N[C@@H](CC(C)C)C(=O)N[C@@H](CC(C)C)C(=O)NCC(=O)N[C@@H](CCC(N)=O)C(=O)N[C@@H](CC(C)C)C(=O)N[C@H](C(=O)N[C@@H](CCC(N)=O)C(=O)N[C@H](C(=O)N[C@@H](C)C(=O)N[C@@H](CC(C)C)C(N)=O)[C@@H](C)CC)[C@@H](C)O)[C@@H](C)CC
helicity (circular dichroism; POPC vesicles 5 mM; 20 µM, fully membrane bound): 55%

CCCCCCCCCCCCC(=O)O.O=C1CCCC2C3CCCN4CCCC(CN12)C34 (stereo not drawn)
standard Gibbs energy of aggregation (electrical conductivity; water; 293.15 K): -8.29 kcal/mol

CSCC[C@H](NC(=O)CNC(=O)[C@H](CCCCN)NC(=O)[C@H](CC(C)C)NC(=O)[C@@H]1CCCN1C(=O)[C@H](CO)NC(=O)[C@H](Cc1c[nH]cn1)NC(=O)[C@H](Cc1c[nH]c2ccccc12)NC(=O)[C@H](CCCNC(=N)N)NC(=O)[C@H](CC(C)C)NC(=O)[C@H](CCCNC(=N)N)NC(=O)[C@H](Cc1c[nH]c2ccccc12)NC(=O)[C@H](CS)NC(=O)CN1CCN(CC(=O)O)CCN(CC(=O)O)CCN(CC(=O)O)CC1)C(=O)O [copper-64 labelled]
intact tracer remaining (radio-HPLC; mouse serum; 2 h, 37 °C): ~20.1%

CC1=CC=c2ccc3c4c2[N]1[Re](=[C]=O)(=[C]=O)(=[C]=O)([C]#[N+]c1c(C)cccc1C)[N]4C(C)=CC=3.O=S(=O)([O-])C(F)(F)F
luminescence lifetime (PBS; pH 7.4, nitrogen-saturated): 6.8 µs

CN(C)C(CNC(=O)Nc1cc(C(F)(F)F)ccc1N1CCOCC1)c1ccncc1 (stereo not drawn)
serum creatinine (mouse, serum; intraperitoneal, 180 mg/kg single dose): 0.2 mg/dL

CC[C@H](C)[C@H](NC(=O)[C@H](CC(=O)O)NC(=O)[C@H](CO)NC(=O)[C@H](CCC(N)=O)NC(=O)[C@H](C)NC(=O)[C@H](CC(=O)O)NC(=O)[C@H](CCC(=O)O)NC(=O)[C@H](Cc1c[nH]cn1)NC(=O)[C@H](Cc1ccc(O)cc1)NC(=O)[C@H](C)NC(=O)[C@H](CC(=O)O)NC(=O)[C@H](CCC(=O)O)NC(=O)[C@H](Cc1c[nH]cn1)NC(=O)[C@H](Cc1ccc(O)cc1)NC(=O)[C@H](C)NC(=O)[C@H](CC(=O)O)NC(=O)[C@H](CCC(=O)O)NC(=O)[C@H](Cc1c[nH]cn1)NC(=O)[C@H](Cc1ccc(O)cc1)NC(=O)[C@H](C)NC(=O)[C@H](CC(=O)O)NC(=O)[C@H](CCC(=O)O)NC(=O)[C@H](Cc1c[nH]cn1)NC(=O)[C@H](Cc1ccc(O)cc1)NC(=O)[C@H](C)NC(=O)[C@H](CC(=O)O)NC(=O)[C@H](CCC(=O)O)NC(=O)[C@H](Cc1c[nH]cn1)NC(=O)[C@@H](N)Cc1ccc(O)cc1)C(=O)N[C@H](C(=O)N[C@@H](C)C(=O)N[C@@H](Cc1c[nH]cn1)C(=O)N[C@@H](CC(C)C)C(=O)N[C@@H](CC(C)C)C(=O)O)C(C)C
BUN (mouse, SN model; dose not given): 19.6 ± 1.5 mg/dL

CCCCCCCC/C=C\CCCCCCCCOP(O)(O)=S.N
AUC(0-inf) (mouse, male, irradiated; sc, dose not given, 15.6 Gy partial-body, dosed 24 h after): 1720 ng·h/mL

COC(=O)C[C@H](NC(=O)[C@H](C)NC(=O)[C@@H](NC(=O)[C@H](CC(=O)OC)NC(=O)[C@@H](NC(=O)c1ccc2ccccc2n1)C(C)C)C(C)C)C(=O)COc1c(F)cccc1F
body weight (rat pups; 1 mg/kg, 48 h): 20.9 ± 0.67 g

O=c1cc(-c2ccccc2)oc2c(Br)c(O)c(O)c(O)c12
MRT(0-t) (C57BL/6 mouse, plasma; oral, 250 mg/kg, single dose): 7.5 h

CCN(CC)c1ccc2c(-c3ccccc3C(=O)OCCOCC[18F])c3ccc(=[N+](CC)CC)cc-3oc2c1
heart to blood ratio (rat; dose not given, 60 min post injection; reference: heart over blood): 10

[11CH3]n1c(=O)n(CCCO)c(=O)c2c1nc(Oc1cccc(OC(F)(F)F)c1)n2Cc1ccc(Cl)cc1
tracer uptake (ex vivo biodistribution; Sprague Dawley rat, lung; 60 min post injection): 0.63 ± 0.13 %ID/g

CC[C@H](C)C(=O)N1CCC(NC(=O)Nc2ccc(OC(F)(F)F)c(F)c2)CC1
subjects with injection site reaction (healthy volunteers, both sexes; oral, 8 mg, fasted state): 0%

Cc1cc(C)c(-c2cc(C)c(OP(=O)([O-])OCCC[C@H](C(=O)[O-])N3CCN(CC(=O)[O-])CCN(CC(=O)[O-])CCN(CC(=O)[O-])CC3)cc2C)c(C)c1.[Gd+3]
water residency time (O-17 NMR; PBS; 37 °C, no protein, 7.05 T): 85 ns

CCN(CCCCOc1ccc(CCC(=O)N2CCC(Cc3ccccc3)CC2)cc1OC)Cc1ccccc1
concentration (Sprague-Dawley rats, both sexes, brain; oral, 25 mg/kg, 0.75 h): 1400 ng/g

N=C(N)NCc1ccc(C(=O)NCCCC[C@H](NC(=O)N[C@@H](CCC(=O)O)C(=O)O)C(=O)O)cc1[211At]
tissue uptake (SCID mouse, PC-3 xenografts, brain; 4 h): 0.09 ± 0.03 %ID/g

For quick reference, copied from above:
CC(C)C[C@@H](NC(=O)[C@@H](CCCNC(=N)N)NC(=O)[C@@H](Cc1c[nH]cn1)NC(=O)[C@@H](Cc1c[nH]c2ccccc12)NC(=O)[C@@H](Cc1c[nH]cn1)NC(=O)[C@@H](Cc1ccccc1)NC(=O)[C@H](NC(=O)[C@@H](Cc1ccc(O)cc1)NC(=O)CNC(=O)CNC(=O)CCOCCOCCOCCNC(=O)CN1CCN(CC(=O)O)CCN(CC(=O)O)CC1)[C@H](C)O)C(=O)N[C@H](CC(N)=O)C(=O)N1CCC[C@@H]1C(=O)O [gallium-68 labelled]
blood half-life (male C57BL/6 mice, blood; iv, 18.5 MBq): 0.45 h
